Measurements gathered from unrelated publications.
A part holds a random share of what one study measured. Substitutions count along the parent as printed.

Set 1 — technique: RNA Bind-n-Seq; form: RNA; medium: in vitro; tested at: 365 nM; baseline: no-protein control; reading: higher = stronger binding; quantity: RBNS enrichment (R)
Target: RNA binding protein fox-1 homolog 2, RRM domain, GST-SBP tag (RBFOX2, Homo sapiens, UniProt O43251-10, residues 100-194)
Setting: natural RNA segment, single round, ends assumed
Construct (chain): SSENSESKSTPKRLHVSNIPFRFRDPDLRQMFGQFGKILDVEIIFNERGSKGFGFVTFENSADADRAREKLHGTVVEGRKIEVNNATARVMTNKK
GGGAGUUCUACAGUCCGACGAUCUUGCCCCUCCCCCACACUCACUGCCCCUCCCCCCAGCGUCACCUGGGAUUUGCAGAUGUGUUUAGAAACACGCCCAGACCUUGAACCUUGGGUUCAUGGAUUAGUUUUGUUGGAAUUCUCGGGUGCCAA: 0.912
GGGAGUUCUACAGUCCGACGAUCACUCUGAGGAAACCUAGGAAAUCUCGGUGUACUAGGAAGUGAAUCCUGCAGGACAGCUGCACUCAGGGAUACGCCCAACACCAUGGCCAGGGUCAAAGGUGAAGAAAGCAUGGAAUUCUCGGGUGCCAA: 0.953
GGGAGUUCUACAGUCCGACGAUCGAAAGUAGCAGAUUAGUGCAAGGUGGCAUGCAUAUAAGGUUAACUGAGUGGGGUACGCUAAUUAUACUUUUUGUUGUGGAUAAAAAAUGCUUGUCAAUAGCCUUUUUCUAUGGAAUUCUCGGGUGCCAA: 3.95
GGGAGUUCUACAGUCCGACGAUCUCCGUUCGGCUUUUGCUUUGCGUUAGGGUGAAGACCCUAGCGUCCAGCUCCCCUCAACGCUAUAUUUUGACACUAAAAAAGAAGGUUUCUAAAUUGUAGGAGCAGGAUGGUGGAAUUCUCGGGUGCCAA: 0.243
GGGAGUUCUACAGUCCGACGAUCAGAACAAUGGCGUUCUGUAAUUUCCUUCAUUCUGCUUCAUAGUUGCUGACAUCUCAGAGACGCCAUCCUCCUAAUUUUCCUGUCCUUCCAAUAGAACAACAGGAGUAGAGUGGAAUUCUCGGGUGCCAA: 0.377
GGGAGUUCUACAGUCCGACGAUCCCAUGCAUUAUAUACCCUGGUGCAAUCACACGACUGUCAUCUAAAGUCCUGGCCCUGGCCCUUACUAUUAGGAAAAUAAACAGACAAAAACAAGUAAAUAUAUAUGGUCAUGGAAUUCUCGGGUGCCAA: 0.454
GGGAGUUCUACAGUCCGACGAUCAAUGCUGUCUUUUCUAUGGUGUAGAAUCUUUCUUUCUGAUAAGGAACGUCUCAGGCUUAGAAAUAUAUGAAAUUGCUUUUUGAGAUUUUUGCGUGUGUGUUUGAUAUUUUUGGAAUUCUCGGGUGCCAA: 1.4
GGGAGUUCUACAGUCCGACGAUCCUGUGUGUGGGUGAUUGGAUGUGGGGGUGGGGCCCGUGGAGAGCCGGUGCCCCUCCCCAUCUCCCCGUGCCUGUAUCUAAUAUAUAAAUAUAGAGAUGUGUAUAUGGAUGUGGAAUUCUCGGGUGCCAA: 0.983
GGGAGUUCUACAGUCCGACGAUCGAACACUGGCAACAUGGAAUGUAGAGAGCUGAUGUCUUCCCCCUCAUAGAGGCCAUUGGCUUCCUUUGUAUAAGGAGAGGGAGAAGUGAUUCUGGAAGGAGAAGUUGGUAUGGAAUUCUCGGGUGCCAA: 1.1
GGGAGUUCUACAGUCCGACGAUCUAUAAAUGUUUGUCUGGAUUGGCUAUAACAUGUCUUUCAGCAUUAGGCUUUUAAGAAACACAGGGUUUUGUAUUCUUUACUAAAGAUAUCAGAGCUCUUAAUGUUGCUUAUGGAAUUCUCGGGUGCCAA: 0.255
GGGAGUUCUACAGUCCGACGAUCGAGGAACUUACUGUACAAUAUCUAAAAAGAAAGUCACUGGGGAAAACCUUUCCUCCUUCCUCCCUCACAGGUUGUUUGAGUGUGUAGGAAUCUGCACAAGAGAGGAGGUCUGGAAUUCUCGGGUGCCAA: 0.49
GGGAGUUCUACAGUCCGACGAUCUAUGAGAUUACCUUAUUUUUAUAUAUGACAAACUACUUCUAUAAUGCUUAUUAUGGUAAAAUAAAAUUGGAAAAAAUUAAAACUGACCUAUAAGAGUGUUAAGGACCUAAUGGAAUUCUCGGGUGCCAA: 0.341

Set 2 — technique: protein-binding microarray; form: double-stranded DNA, one strand shown; medium: in vitro; tested at: 250 nM; setting: 60-bp whole probe; added: salmon DNA 0.4 mg/ml; baseline: random background probes; reading: higher = stronger binding; quantity: log fluorescence; all sequences stand within: GCCTAGCAC … GTCTTGATTCGCTTGACGCTGCTG
Target: Interferon regulatory factor 5, full length, phosphomimetic (IRF5, Homo sapiens, UniProt Q13568-2, residues 1-514, K96S/S451D/S453D/S456D/S462D)
TCTGTTTTTGCTTTCCTTCTGTGCTAG: 2.06 z-score
TGGGTTTTCAGCTGTTTTTCTGTGCTA: 1.28 z-score
CAATACCTTATGAATGTGTTGTGCTAG: 0.325 z-score
GACGATTTCAGTATCGAGAAGTGCTAG: 3.72 z-score
GACGGTACCGACTATCGGGACGTGCTA: 1.38 z-score
GACGAACTGACTATCGAGACGTGCTAG: 2.12 z-score
TTAGGTTTCGGACTGGCTTAGTGCTAG: 5.37 z-score
TTAGAACTGGAGACTGGATTAGTGCTA: -0.35 z-score
GACGATATCGGGTTTCGCGACGTGCTA: 2.09 z-score
GACGGTTTCAGTTCCGAGACGTGCTAG: 2.99 z-score
TTAGGTTTCGGGATTCGGTTAGTGCTA: 7.58 z-score
TATTTTTTCTGAACCATTTTGTGCTAG: 1.24 z-score
TTAGGTTTCGCACTGGGTTAGTGCTAG: 3.1 z-score

Set 3 — target: CCNA2, cyclin fold, Cln2 fusion (human); technique: yeast growth competition, sequencing; medium: yeast; setting: strong parent motif; baseline: not given; reading: higher = stronger binding; quantity: normalised enrichment score
Starting sequence: CDKN1B docking peptide (human); PSACRNLFGPVDH; partner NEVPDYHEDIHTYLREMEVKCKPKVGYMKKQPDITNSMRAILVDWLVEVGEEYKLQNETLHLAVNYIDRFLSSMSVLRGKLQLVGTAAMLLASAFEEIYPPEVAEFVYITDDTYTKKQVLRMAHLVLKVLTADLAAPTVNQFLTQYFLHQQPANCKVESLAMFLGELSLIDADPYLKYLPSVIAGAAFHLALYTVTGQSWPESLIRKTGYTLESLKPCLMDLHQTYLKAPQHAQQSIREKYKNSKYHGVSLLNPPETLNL
PSACRNLFGPRDH [V11R]: 3.72
PSAHRNLFGPVDH [C4H]: 1.49
PSACMNLFGPVDH [R5M]: 0.0819
PSECRNLFGPVDH [A3E]: 0.408
PSACRNLFAPVDH [G9A]: 2.06
PSACRNLFIPVDH [G9I]: 1.19
PSICRNLFGPVDH [A3I]: 3.43
PSACRNLFQPVDH [G9Q]: 1.48
PSACRNRFGPVDH [L7R]: 0.76
PSACRNLFGPVSH [D12S]: 3.75
PSKCRNLFGPVDH [A3K]: 0.263
PSACRNLFGPVKH [D12K]: 3.81
PSACRNLFGPVDF [H13F]: 4.19

Mixed results
PhoQ, residues 284 288 289 292 302 303 NLMGRA
fold induction (PhoP, residues 12 14 15 18 19 NHFRA (Escherichia coli, UniProt P23836); Sort-seq, refers to: YFP reporter; E. coli; PhoQ-PhoP variant library, added: 10 µM Mg2+; baseline: high Mg2+ state, higher = stronger signaling): 3.42

Some of these lines once more (mixed results):
PhoQ, residues 284 288 289 292 302 303 NLMGRA
fold induction (PhoP, residues 12 14 15 18 19 NHFRA (Escherichia coli, UniProt P23836); Sort-seq, refers to: YFP reporter; E. coli; PhoQ-PhoP variant library, added: 10 µM Mg2+; baseline: high Mg2+ state, higher = stronger signaling): 3.42
